{"data": "Results from different studies", "note": "Every numbered part comes from another study and shows a few of its results, in no order. Changes are numbered by the printed parent chain."}
{"data": "Sample 1", "target": "Interferon regulatory factor 7, full length, phosphomimetic (IRF7, Homo sapiens, UniProt Q92985, residues 1-503, S101K/S471D/S472D/S475D/S476D/S477D/S483D/S484D/S487D)", "method": "protein-binding microarray", "molecule type": "double-stranded DNA, one strand shown", "sample": "in vitro", "tested at": "250 nM", "setting": "60-bp whole probe", "together with": "salmon DNA 0.4 mg/ml", "baseline": "random background probes", "reading": "higher = stronger binding", "constant ends, left off below": "GCCTAGCAC … GTCTTGATTCGCTTGACGCTGCTG", "UniProt Q92985, sequence (whole entry, unmodified, looked up)": "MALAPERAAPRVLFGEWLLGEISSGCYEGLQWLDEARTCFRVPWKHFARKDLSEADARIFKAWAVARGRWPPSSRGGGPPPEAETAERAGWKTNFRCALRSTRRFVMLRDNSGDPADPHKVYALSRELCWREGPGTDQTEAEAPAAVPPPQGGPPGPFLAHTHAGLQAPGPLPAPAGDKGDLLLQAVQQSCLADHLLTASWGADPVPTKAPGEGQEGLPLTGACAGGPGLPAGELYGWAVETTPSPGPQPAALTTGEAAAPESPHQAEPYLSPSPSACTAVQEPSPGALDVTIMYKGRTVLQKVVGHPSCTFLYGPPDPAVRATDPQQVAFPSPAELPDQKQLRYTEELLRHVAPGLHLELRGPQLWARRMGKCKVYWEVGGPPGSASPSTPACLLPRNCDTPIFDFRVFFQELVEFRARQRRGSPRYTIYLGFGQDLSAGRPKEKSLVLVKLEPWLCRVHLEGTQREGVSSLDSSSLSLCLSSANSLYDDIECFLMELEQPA"}
{"Oligonucleotide": "TGAGGTATCGGGACTGGGTTAGTGCTA", "log fluorescence": "-0.487 z-score"}
{"Oligonucleotide": "CGTACTGTATCTAGCCTTGCGTGCTAG", "log fluorescence": "0.475 z-score"}
{"Oligonucleotide": "GACGGTATCGACATTGGGGACGTGCTA", "log fluorescence": "-0.254 z-score"}
{"Oligonucleotide": "TCATTTCTACTTCTCTTACTGTGCTAG", "log fluorescence": "2.08 z-score"}
{"Oligonucleotide": "TTAGGTATCGGGACTGGGGTAGTGCTA", "log fluorescence": "-0.131 z-score"}
{"Oligonucleotide": "TCAATCCCCAGTCTCATACTGTGCTAG", "log fluorescence": "0.5 z-score"}
{"Oligonucleotide": "TTAGGTATCCGTATCCTTTAGTGCTAG", "log fluorescence": "0.295 z-score"}
{"Oligonucleotide": "TTAGGCTCCCTTTTCCTTTAGTGCTAG", "log fluorescence": "1.68 z-score"}
{"Oligonucleotide": "TCACTTCCCAATTCTCTTACTGTGCTA", "log fluorescence": "2.08 z-score"}
{"Oligonucleotide": "GTAGGTTTCCTACTGCTTTAGTGCTAG", "log fluorescence": "0.44 z-score"}
{"Oligonucleotide": "GACAAACTGGGGACTGGAGACGTGCTA", "log fluorescence": "0.0385 z-score"}
{"Oligonucleotide": "TTCGGTATCGGTTTCGGTTAGTGCTAG", "log fluorescence": "10 z-score"}
{"data": "Sample 2", "target": "ABI1, truncated, D143A, DHFR fusion (Arabidopsis thaliana)", "method": "DHFR PCA, deep sequencing", "sample": "yeast", "setting": "methotrexate growth selection, single substitutions", "together with": "(+)-ABA 0.39 µM", "baseline": "wild-type fitted maximum", "reading": "higher = stronger binding", "parent": "PYL1, truncated, DHFR fusion (Arabidopsis thaliana); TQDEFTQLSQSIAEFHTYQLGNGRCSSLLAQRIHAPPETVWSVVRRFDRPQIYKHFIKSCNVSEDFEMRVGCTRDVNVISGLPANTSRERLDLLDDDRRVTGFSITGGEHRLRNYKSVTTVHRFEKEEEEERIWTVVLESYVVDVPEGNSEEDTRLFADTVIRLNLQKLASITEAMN; partner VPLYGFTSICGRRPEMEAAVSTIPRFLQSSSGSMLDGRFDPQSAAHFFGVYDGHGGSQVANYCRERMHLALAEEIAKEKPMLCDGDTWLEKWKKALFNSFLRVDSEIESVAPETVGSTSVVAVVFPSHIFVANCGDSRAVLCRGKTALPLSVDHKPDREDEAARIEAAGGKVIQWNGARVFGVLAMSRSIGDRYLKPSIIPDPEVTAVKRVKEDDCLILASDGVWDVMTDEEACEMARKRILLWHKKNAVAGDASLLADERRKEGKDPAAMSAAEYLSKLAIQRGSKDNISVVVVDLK"}
{"Change": "G148P", "relative binding score": "-3.09%"}
{"Change": "V40D", "relative binding score": "-1.58%"}
{"Change": "W41E", "relative binding score": "-3.97%"}
{"Change": "S26A", "relative binding score": "31.8%"}
{"Change": "Y18M", "relative binding score": "0.792%"}
{"Change": "D153R", "relative binding score": "0.987%"}
{"Change": "A13H", "relative binding score": "30.1%"}
{"Change": "I33W", "relative binding score": "4.22%"}
{"Change": "Y141E", "relative binding score": "0.663%"}
{"Change": "F15K", "relative binding score": "-11.8%"}
{"data": "Sample 3", "target": "CCNF, cyclin fold, Cln2 fusion (human)", "method": "yeast growth competition, sequencing", "sample": "yeast", "setting": "strong parent motif", "baseline": "not given", "reading": "higher = stronger binding", "parent": "CDKN1A docking peptide (human); SKACRRLFGPVDS"}
{"Change": "SKAQRRLFGPVDS [C4Q]", "normalised enrichment score": 7.17}
{"Change": "SKVCRRLFGPVDS [A3V]", "normalised enrichment score": 8.5}
{"Change": "SKACRQLFGPVDS [R6Q]", "normalised enrichment score": 7.29}
{"Change": "SKACRRLFGIVDS [P10I]", "normalised enrichment score": 6.76}
{"Change": "SKACRRTFGPVDS [L7T]", "normalised enrichment score": 0.66}
{"Change": "SKACRRLFGGVDS [P10G]", "normalised enrichment score": 7.08}
{"Change": "SKACYRLFGPVDS [R5Y]", "normalised enrichment score": 0.497}
{"Change": "SKACVRLFGPVDS [R5V]", "normalised enrichment score": 0.958}
{"Change": "SKACRTLFGPVDS [R6T]", "normalised enrichment score": 5.35}
{"Change": "SKACRRDFGPVDS [L7D]", "normalised enrichment score": 0.0836}
{"Change": "SKAWRRLFGPVDS [C4W]", "normalised enrichment score": 1.14}
{"data": "Other studies, line by line"}
{"Molecule": "PhoQ, residues 284 288 289 292 302 303 NLSRDF", "target": "PhoP, residues 12 14 15 18 19 LHHSG (Escherichia coli, UniProt P23836)", "test": "Sort-seq, measured: YFP reporter", "system": "E. coli", "conditions": "PhoQ-PhoP variant library, together with: 10 µM Mg2+", "scale": "baseline: high Mg2+ state, higher = stronger signaling", "endpoint": "fold induction", "value": 0.806}
{"note": "Excerpt of the above (sample 1):"}
{"Oligonucleotide": "TGAGGTATCGGGACTGGGTTAGTGCTA", "log fluorescence": "-0.487 z-score"}
{"Oligonucleotide": "CGTACTGTATCTAGCCTTGCGTGCTAG", "log fluorescence": "0.475 z-score"}
